# Published values from different studies.
# Numbered parts are unrelated; each lists some results of a single study.

# Study 1
# Target: Sal-like protein 4, full length isoform B (SALL4, Homo sapiens, UniProt Q9UJQ4-2, residues 1-616)
# Method: universal PBM
# Form: double-stranded DNA, one strand shown
# Matrix: in vitro
# Tested at: not given
# Notes: 8-mer, flanks averaged, mean of replicates
# Reading: higher = stronger binding
# Residues (chain): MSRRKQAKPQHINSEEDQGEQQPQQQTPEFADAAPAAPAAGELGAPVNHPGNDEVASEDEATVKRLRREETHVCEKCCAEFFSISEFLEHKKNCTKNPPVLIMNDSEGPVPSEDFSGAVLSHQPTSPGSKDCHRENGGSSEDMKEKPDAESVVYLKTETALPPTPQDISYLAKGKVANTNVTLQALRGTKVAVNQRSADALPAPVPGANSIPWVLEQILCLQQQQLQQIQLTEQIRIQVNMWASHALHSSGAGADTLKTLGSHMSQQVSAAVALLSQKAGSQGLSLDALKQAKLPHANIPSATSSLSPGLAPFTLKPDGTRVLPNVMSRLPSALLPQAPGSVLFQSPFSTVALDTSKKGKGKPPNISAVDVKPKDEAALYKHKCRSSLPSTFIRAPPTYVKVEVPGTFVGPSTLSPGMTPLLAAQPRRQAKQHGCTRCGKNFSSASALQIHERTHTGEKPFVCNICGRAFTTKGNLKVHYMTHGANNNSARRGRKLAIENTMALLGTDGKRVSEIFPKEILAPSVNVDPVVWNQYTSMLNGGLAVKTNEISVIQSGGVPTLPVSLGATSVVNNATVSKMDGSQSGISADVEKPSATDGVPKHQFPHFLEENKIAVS
Sequence,E-score
GGTGTTCA,-0.026
ATTTGGCG,0.112
CCACCTCC,-0.121
AAGTTACC,0.0657
ATTAGATC,0.196
CGCGCCCC,-0.393
ACGCAGTC,-0.234
CTCGTCCC,-0.21
CAGCCCCC,-0.285
AACTAACA,0.195
CAAGAATA,0.297
GATTCGTA,0.0938
GCTTATAC,0.147
AATGCGTA,0.213
ACAAGATA,0.229
ACCGGTAC,-0.147
ATATAGTC,0.344
GGGTGCTA,-0.0971
GTGTGCAA,0.00841
CGGCTGCC,-0.306
GGCCACAA,-0.252
GCCCGTTA,-0.0862
ATCGACCA,-0.139
GGAAGGCC,-0.276
CGCCTTCA,-0.0945

# Study 2
# Target: Histone acetyltransferase KAT6A, winged helix 1, GST fusion (KAT6A, Homo sapiens, UniProt Q92794, residues 1-85)
# Method: protein binding microarray
# Form: double-stranded DNA, one strand shown
# Matrix: in vitro
# Tested at: not given
# Notes: 8-mer, flanks averaged, mean of 2 arrays, mostly near background
# Relative to: not given
# Reading: higher = stronger binding
# Construct (chain): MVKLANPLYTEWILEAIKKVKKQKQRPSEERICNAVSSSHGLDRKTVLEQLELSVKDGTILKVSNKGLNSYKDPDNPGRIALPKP
Sequence,E-score
ATCATGTG,-0.198
ATAAGGAC,0.0287
ATTATGAC,-0.0619
AAGGACAC,-0.166
CCGACCCA,0.162
GTGATGGA,-0.208
AACAGGAG,-0.319
ACCGGCCA,0.0877
CACTTACA,-0.143
CAAAGCCG,0.269
CCAAACGG,0.201
CACGGACG,0.292
ATAATATG,-0.0869
AACTCAGT,-0.219
CCAACACA,-0.212
CACTGGAA,-0.2
TAGTTGCA,-0.13
AGACGGAG,-0.0133
ATGGATCC,-0.0411
GGCACCGA,0.00024
CACATACG,0.0558
CCGGGGCG,0.342
TAGGAGCA,-0.242
AAGGATCA,-0.207
CTGCCCTC,-0.129

# Study 3
# Target: Centromere-binding protein 1, full length, His-tagged (CBF1, Saccharomyces cerevisiae, UniProt P17106, residues 1-351)
# UniProt P17106, sequence (whole entry, looked up): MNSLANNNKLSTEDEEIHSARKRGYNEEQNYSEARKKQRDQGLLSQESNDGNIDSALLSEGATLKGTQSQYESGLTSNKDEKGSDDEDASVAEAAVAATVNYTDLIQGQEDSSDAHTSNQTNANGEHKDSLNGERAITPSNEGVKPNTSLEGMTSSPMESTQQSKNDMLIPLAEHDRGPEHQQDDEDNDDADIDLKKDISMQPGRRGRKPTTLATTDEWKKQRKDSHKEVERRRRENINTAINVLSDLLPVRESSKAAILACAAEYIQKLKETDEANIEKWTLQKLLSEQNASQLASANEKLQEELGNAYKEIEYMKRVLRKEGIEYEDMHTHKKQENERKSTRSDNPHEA
# Method: competition protein-binding microarray
# Form: double-stranded DNA, one strand shown
# Matrix: in vitro
# Tested at: 2 µM
# Notes: whole 60-bp probe, lowest competitor level
# Added: Pho4 competitor, 0.05 µM
# Reading: higher = stronger binding
Sequence,fluorescence intensity [a.u.]
GTATTCTAGCAGCCGCTCGTGCAAAGTGTTCAATGCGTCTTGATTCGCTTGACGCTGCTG,99.1
GGAAAGCCTATTTCTCACGTTTTCCGGCACTTAATGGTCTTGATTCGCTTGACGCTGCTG,149
CATACCCAACCTTGTGGAGTGGGTGAAGATATTTGTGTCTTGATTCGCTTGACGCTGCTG,54.1
ACACCAAATCCGAGTCACGTTCCTTCTTGATTAGTGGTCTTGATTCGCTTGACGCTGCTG,880
TACTTTCTACGCGGCCACGTGCAATTAAAAGATGGCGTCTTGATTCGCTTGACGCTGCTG,1860
ATATTCTTAGTATTCCATGTGTCTCGTAATACCTTAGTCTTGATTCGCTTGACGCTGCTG,123
GTTCATGGAAGTGGTGGCCTGATCCATTTGCTGGTGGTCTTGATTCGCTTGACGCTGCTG,73.8
GTCTTGTCTCATTGCCCCGTGGGTGTCCCCACTTCAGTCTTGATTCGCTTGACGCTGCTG,92.7
CTAACGAAGGTTTGGGCCGTGGGTGACAAGCCAAGTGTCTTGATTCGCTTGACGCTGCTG,60.5
CAATGAAGTTAATATCACATGTTATGATCCACCAAGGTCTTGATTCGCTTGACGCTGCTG,741
AAATTACTAAGTTGCCCTGTGGGTGACGCCGTATGAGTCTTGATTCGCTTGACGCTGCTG,59.6
CTAACGAAGGTTTGTCACGGTACTTACAAGCCAAGTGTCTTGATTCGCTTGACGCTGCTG,164
CAACAAATAGTAGCTCGCGTGGCCGAATGGCAACGCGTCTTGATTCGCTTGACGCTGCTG,65.4
CTTCTGTAAATTTGGACAGTGGGTGGACGCGCCCCGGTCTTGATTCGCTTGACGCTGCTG,71.4
AAAGCGGTAATTTGGGATGTGGGTGCAGATATCTATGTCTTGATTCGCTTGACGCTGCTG,75.7
AAATTACTAAGTTGTGTAGTGGGTGACGCCGTATGAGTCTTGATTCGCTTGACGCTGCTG,67
GGCAGGCGAAAATCCTATGTGCGTAGAGCTGATACAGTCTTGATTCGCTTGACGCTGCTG,61.2

# Study 4
# Target: RNA binding protein fox-1 homolog 2, RRM domain, GST-SBP tag (RBFOX2, Homo sapiens, UniProt O43251-10, residues 100-194)
# Method: RNA Bind-n-Seq
# Form: RNA
# Matrix: in vitro
# Tested at: 365 nM
# Notes: natural RNA segment, single round, ends assumed
# Relative to: no-protein control
# Reading: higher = stronger binding
# Target sequence (chain): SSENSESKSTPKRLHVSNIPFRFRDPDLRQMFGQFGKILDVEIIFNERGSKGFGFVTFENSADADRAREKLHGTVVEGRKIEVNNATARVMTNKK
Sequence,RBNS enrichment (R)
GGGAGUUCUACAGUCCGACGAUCCUGCAAUGGCCCUACCAAAAGCCAUGUUGCAUAUCCGUUGUAAGCACGUGCCCUGUGCCCUGUCCCCAUUCCUUAUGCCCUAGGAGGCCAAGCUGGUGUCUCUAGGAGGGUGGAAUUCUCGGGUGCCAA,0.407
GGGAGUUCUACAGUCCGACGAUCAAGUGAUGCCCUUCUGGAGACUGAGGGUGUGGCCUUCCUCCCAUGCUCUCUCUGGGUGAGUGUGGGGUCUGGGUGUCCUUUGCAUUCCCCUCCUCACCCCAGGUGCCUUAUGGAAUUCUCGGGUGCCAA,0.687
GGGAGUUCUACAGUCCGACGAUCUGAGCCCCUCACAGCCUUGCCCCUCCCCAAGGCUGGCAACCUGCCUCCCAUUGCCCAAGAGAGAGGGCAGGGAACAGGCUACUGUCCUUCCCUGUGGAAUUGCCGAGAAAUGGAAUUCUCGGGUGCCAA,0.546
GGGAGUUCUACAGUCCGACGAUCAUUUUAAGUACAACUUUUCAGGCUAGUUACUGUGAUGGACAUUGAGGUGUUUGUAGAACUGACUCUUAUAUAGUAAGUAAUAAUGUUUCCUUUAAAAUAAUUGGGCCAUCUGGAAUUCUCGGGUGCCAA,0.828
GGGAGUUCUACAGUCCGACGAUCCAAAAGUGAAUCGGGGUGCGGAGAGUGGGAACCUUUUGAAUUUAUGAUUGUCACAGAGAUGGUAGAAAUUAUGAUCUGACUGGAAAACAAUCCUGUAUCCCCUCCCAAAGUGGAAUUCUCGGGUGCCAA,0.28
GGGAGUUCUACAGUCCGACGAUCUUUCCUUAGAGAAAAUAAUUUUAUUCUGCUUUGUCCAAUUAAAUUAUUCCAAUGGCGGAUGGUAAUAUUCACCAUCUCUAAUUCAUUGGUCACUGGUAGGUAAGCAUGAGUGGAAUUCUCGGGUGCCAA,6.37
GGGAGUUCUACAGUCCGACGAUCCUGAGGCCUGGCUAGGGCCCUCCUGGGCAGAGCCCCUGCCUAGCCCUUCAGGCCUGAUGCCUCAGGCCUGAUUCCCUCCUUUUAAAGCAAUACCUUCAGGUCUGCCAUGCUGGAAUUCUCGGGUGCCAA,0.319
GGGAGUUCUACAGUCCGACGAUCGCACAUUUGUACAUAUACUUAAUGUUUUCAAGUGCCUUAAUUGUUUAAAAUCUCUGGCUUCAAAGUUUCUUGGGGAAAGGUCGGUUUACCUCACAUUUUUUGUUUCCAUUUGGAAUUCUCGGGUGCCAA,0.576
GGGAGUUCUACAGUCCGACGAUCAGGUAAUAGAUAGGUGAUAUACAUGAUACAUUCUCAAGAGUUGCUUGACCGAAAGUUACAAGGACCCCAACCCCUUUGUCCUCUCUACCCACAGAUGGCCCUGGGAAUCAUGGAAUUCUCGGGUGCCAA,0.787
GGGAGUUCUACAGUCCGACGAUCUUCCUUCCAAAUAUGUUAGUACCUACCCUUUACUUUUUCCCCAAGACCAUCUCAGGGUGGAGCAUUCUGUCUAAGAGAAGAAAGAUAAGGAGGCUCCCACCCACCUCUCCUGGAAUUCUCGGGUGCCAA,1.34
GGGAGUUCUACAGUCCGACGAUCGUCAGUUGUGAGGGCCUGAUUAGACUCUGGAGCAUGGUGUACGACUCUUCUCCAAGAGCGCAUGCAAGAGUCUCCCCCCCUCAGCCUCAUUAAAGACGAAAAGCCACCUCUGGAAUUCUCGGGUGCCAA,0.424
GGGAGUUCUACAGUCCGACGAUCGAAGAAAGUGUCUAUAUUGGAACUAGGGUCAUUUGAAAGCUUCAGUCUCGGAACAUGACCUUUAGUCUGUGGACUCCAUUUAAAAAUAGGUAUGAAUAAGAUGACUAAGAUGGAAUUCUCGGGUGCCAA,0.859

# Some of these lines once more (study 1):
Sequence,E-score
ACAAGATA,0.229
ATCGACCA,-0.139
CCACCTCC,-0.121
ATATAGTC,0.344
CAGCCCCC,-0.285
